Assay results from different studies.
Compare with care: the assays were run in different laboratories.
Organism: Escherichia coli

Cc1ccc2[nH]c3c(c2c1)CCCC3NCCc1ccc(O)cc1 (stereo not shown)  MIC (broth microdilution; O-19592): > 128 µg/mL
CC1(C)[C@H](NC(=O)/C(=N\OCC(=O)N2CCC[C@@H]2C(=O)O)c2nsc(N)n2)C(=O)N1OS(=O)(=O)O  MIC (agar dilution; 08-85, mcr-1): 64 µg/mL
CC[C@H](C)[C@H](NC(=O)[C@@H](CCCNC(=N)N)NC(=O)[C@H](CCCNC(=N)N)NC(=O)[C@@H]1CCCN1C(=O)[C@@H]1CCCN1C(=O)[C@H](Cc1c[nH]c2ccccc12)NC(=O)[C@@H]1CCCN1C(=O)[C@H](CCCNC(=N)N)NC(=O)[C@@H]1CCCN1C(=O)[C@H](CC(C)C)NC(=O)[C@H](Cc1ccc(O)cc1)NC(=O)[C@@H]1CCCN1C(=O)[C@@H]1CCCN1C(=O)[C@H](CCCCN)NC(=O)[C@H](CC(=O)O)NC(=O)[C@@H](N)C(C)C)C(=O)N[C@@H](Cc1ccc(O)cc1)C(=O)N[C@@H](CC(N)=O)C(=O)N[C@H](CCCNC(=N)N)C(N)=O  MIC (broth microdilution; ATCC 25922; 18 h, 37 °C, 25% MHB2): 32 µg/mL
CC(C)C[C@H](NC(=O)[C@H](CCCNC(=N)N)NC(=O)CNC(=O)CNC(=O)[C@@H](N)CCCNC(=N)N)C(=O)N[C@H]1CSSC[C@@H](C(=O)N[C@H](C(=O)NCC(=O)N[C@@H](CCCNC(=N)N)C(N)=O)C(C)C)NC(=O)[C@H](C(C)C)NC(=O)[C@@H]2CSSC[C@H](NC(=O)[C@H](Cc3ccc(O)cc3)NC1=O)C(=O)N[C@@H](CCCNC(=N)N)C(=O)N[C@@H](CCCNC(=N)N)C(=O)N[C@@H](CCCNC(=N)N)C(=O)N[C@@H](Cc1ccccc1)C(=O)N2  MIC (broth dilution; K12 BW25113, Mueller-Hinton II broth; 18 h, 37 °C): 3.91 µg/mL
CN[C@@H]1[C@H](O)[C@H](NC)[C@H]2O[C@]3(O)[C@H](O[C@@H]2[C@H]1O)O[C@H](C)C[C@H]3NC(=O)Cc1ccccn1  MIC (microbial growth, broth dilution; K12): 200 µg/mL
CC(C)Oc1c(NC(=O)c2ccc(NC(=O)C(CC(N)=O)NC(=O)c3cc(F)c(N=Nc4c(F)cccc4F)c(F)c3)cc2)ccc(C(=O)NN=Cc2ccc(C(=O)O)cc2)c1O (stereo not shown)  MIC (BW25113; after 1 h irradiation at 365 nm): > 6.4 µg/mL
CC[C@H](C)[C@H](NC(=O)[C@H](CC(C)C)NC(=O)[C@H](CCCNC(=N)N)NC(=O)CNC(=O)CNC(=O)[C@H](CCCCN)NC(=O)[C@H](CCCNC(=N)N)NC(=O)[C@H](CC(C)C)NC(=O)[C@H](CC(C)C)NC(=O)[C@H](CCCNC(=N)N)NC(=O)[C@@H](NC(=O)[C@H](CC(C)C)NC(=O)[C@@H](N)CO)[C@@H](C)O)C(=O)NCC(=O)N[C@@H](Cc1c[nH]c2ccccc12)C(=O)N[C@@H](CCCNC(=N)N)C(=O)N[C@@H](Cc1c[nH]c2ccccc12)C(=O)N[C@@H](CCC(=O)O)C(=O)N[C@@H](CCCCN)C(=O)N[C@H](C(=O)N[C@@H](CCCNC(=N)N)C(=O)N[C@@H](CC(N)=O)C(=O)N[C@@H](Cc1c[nH]c2ccccc12)C(=O)N[C@H](C(=O)N[C@@H](CCCNC(=N)N)C(=O)N[C@@H](CCCNC(=N)N)C(=O)N[C@H](C(=O)N[C@H](C(=O)N[C@@H](CCC(=O)O)C(=O)N[C@@H](CCCCN)C(=O)N[C@@H](CCCNC(=N)N)C(=O)N[C@@H](CCCCN)C(=O)N1CCC[C@H]1C(=O)N[C@@H](CC(N)=O)C(=O)N[C@@H](CCCCN)C(=O)O)[C@@H](C)CC)[C@@H](C)CC)[C@@H](C)CC)[C@@H](C)O  MIC (broth microdilution; ATCC 25922, Mueller-Hinton broth; 16 to 20 h, 37 °C): 8.79 µg/mL
CC[C@H](C)[C@H](N)C(=O)N[C@@H](CCCNC(=N)N)C(=O)N[C@H](C(=O)N[C@@H](Cc1c[nH]c2ccccc12)C(=O)N[C@@H](Cc1ccccc1)C(=O)N[C@H](C(=O)N[C@@H](CCCCN)C(=O)N[C@H](C(=O)N[C@@H](CCCNC(=N)N)C(=O)N[C@@H](CCCCN)C(=O)N[C@@H](CCSC)C(=O)N[C@@H](CCCCN)C(=O)N[C@@H](C)C(=O)N[C@H](C(=O)N[C@@H](Cc1ccc(O)cc1)C(=O)N[C@@H](Cc1c[nH]cn1)C(=O)N[C@H](C(N)=O)[C@@H](C)O)[C@@H](C)CC)C(C)C)[C@@H](C)CC)C(C)C  MIC (broth dilution; ATCC 25922, Mueller-Hinton broth; 24 h, 37 °C): 25 µM
CO[C@@H](C(N)=O)[C@H](NC(=O)c1ccc(NC(=O)[C@@H](N)Cc2ccc(O)cc2)cc1)C(=O)Nc1ccc(C(=O)Nc2ccc(C(=O)Nc3ccc(C(=O)O)c(O)c3OC(C)C)c(O)c2OC(C)C)cc1  MIC (glutathione S-transferase-like clone; 16 h, 37 °C): 1 µg/mL
CC(=O)N[C@H](Cc1c(F)c(F)c(F)c(F)c1F)C(=O)N[C@@H](CCN)C(=O)N[C@H](C(=O)N[C@@H](CCN)C(=O)N[C@H]1CCNC(=O)[C@H]([C@@H](C)O)NC(=O)[C@H](CCN)NC(=O)[C@H](CCN)NC(=O)[C@H](CC(C)C)NC(=O)[C@@H](Cc2ccccc2)NC(=O)[C@H](CCN)NC1=O)[C@@H](C)O  MIC (broth microdilution; ATCC 25922, colistin-susceptible): < 0.125 µg/mL
CC[C@H](C)[C@H](NC(=O)[C@@H](NC(=O)[C@H](CCCCN)NC(=O)[C@H](CCC(N)=O)NC(=O)[C@@H](NC(=O)[C@H](Cc1c[nH]c2ccccc12)NC(=O)[C@H](CCCCN)NC(=O)[C@H](CCCCN)NC(=O)[C@H](CC(C)C)NC(=O)[C@H](CCCNC(=N)N)NC(=O)[C@H](Cc1ccccc1)NC(=O)[C@@H](N)C(C)C)[C@@H](C)CC)C(C)C)C(N)=O  MIC (24 h, 37 °C, Mueller-Hinton broth, FeCl3 4 µM): 32 µM
CC[C@H](C)[C@H](NC(=O)[C@H](CCCNC(=N)N)NC(=O)[C@H](CO)NC(=O)[C@H](Cc1ccc(O)cc1)NC(=O)[C@@H](NC(=O)[C@@H](NC(=O)[C@H](C)NC(=O)CNC(=O)[C@H](CCCCN)NC(=O)[C@H](CCCCN)NC(=O)CCNC(=O)CCCCCNC(=O)[C@H](CCCNC(=N)N)NC(=O)CCCCCNC(=O)[C@H](CCCNC(=N)N)NC(=O)[C@H](CCCNC(=N)N)NC(=O)CCCCCNC(=O)[C@H](CCCNC(=N)N)NC(=O)[C@H](CCCNC(=N)N)NC(=O)CCCCCNC(=O)[C@H](CCCNC(=N)N)NC(=O)[C@H](CCCNC(=N)N)NC(=O)CCCCCNC(=O)[C@@H](N)CCCNC(=N)N)C(C)C)[C@@H](C)O)C(=O)N[C@@H](CO)C(=O)NCC(=O)N[C@@H](CCC(N)=O)C(=O)N[C@@H](Cc1ccc(O)cc1)C(=O)N[C@@H](CCCCN)C(=O)O  MIC (ATCC 25922; 1 h, 37 °C, serum, fetal bovine, after 12.5%): 6 µM
CC[C@H](C)[C@H](NC(=O)[C@@H](CCCNC(=N)N)NC(=O)[C@H](CCCNC(=N)N)NC(=O)[C@H](CCC(=O)O)NC(=O)[C@H](Cc1c[nH]c2ccccc12)NC(=O)[C@H](CCCNC(=N)N)NC(=O)[C@@H]1CCCN1C(=O)[C@H](CCCNC(=N)N)NC(=O)[C@@H]1CCCN1C(=O)[C@H](CC(C)C)NC(=O)[C@H](Cc1ccc(O)cc1)NC(=O)[C@@H]1CCCN1C(=O)[C@@H]1CCCN1C(=O)[C@H](CCCCN)NC(=O)[C@H](CC(=O)O)NC(=O)[C@@H](N)C(C)C)C(=O)N[C@@H](Cc1ccc(O)cc1)C(=O)N[C@@H](CC(N)=O)C(=O)N[C@H](CCCNC(=N)N)C(N)=O  MIC (broth microdilution; ATCC 25922; 18 h, 37 °C, 25% MHB2): 32 µg/mL
CC[C@H](C)[C@H](NC(=O)[C@H](C)NC(=O)[C@@H](NC(=O)[C@H](CC(=O)O)NC(=O)[C@H](CCCCN)NC(=O)[C@H](CO)NC(=O)[C@@H](NC(=O)[C@H](CC(N)=O)NC(=O)[C@H](C)NC(=O)[C@@H](NC(=O)[C@H](CCC(=O)O)NC(=O)[C@H](CCCCN)NC(=O)[C@@H](NC(=O)[C@@H](NC(=O)[C@H](Cc1c[nH]cn1)NC(=O)[C@H](CCCCN)NC(=O)[C@@H](NC(=O)[C@H](CCCCN)NC(=O)[C@H](CCCCN)NC(=O)[C@@H](NC(=O)[C@H](CC(C)C)NC(=O)[C@H](CCCCN)NC(=O)[C@H](CC(N)=O)NC(=O)[C@H](Cc1ccccc1)NC(=O)[C@H](CCCNC(=N)N)NC(=O)[C@H](CCCCN)NC(=O)[C@H](CCCNC(=N)N)NC(=O)[C@H](Cc1ccccc1)NC(=O)CN)C(C)C)C(C)C)[C@@H](C)O)[C@@H](C)CC)[C@@H](C)O)C(C)C)C(C)C)C(=O)N[C@H](C(=O)N[C@@H](C)C(=O)NCC(=O)N[C@@H](CO)C(=O)NCC(=O)N[C@H](C(=O)N[C@@H](C)C(=O)N[C@H](C(=O)NCC(=O)N[C@@H](C)C(=O)N[C@@H](C)C(=O)N[C@@H](CCSC)C(N)=O)C(C)C)C(C)C)C(C)C  MIC (broth microdilution; D31, CAMHB): 4 µg/mL
CC[C@H](C)[C@H](NC(=O)[C@@H](CCCNC(=N)N)NC(=O)[C@H](CCCNC(=N)N)NC(=O)[C@@H]1CCCN1C(=O)[C@@H]1CCCN1C(=O)[C@H](CCCNC(=N)N)NC(=O)[C@@H]1CCCN1C(=O)[C@H](CCCNC(=N)N)NC(=O)[C@@H]1CCCN1C(=O)[C@H](CC(C)C)NC(=O)[C@H](Cc1ccccc1)NC(=O)[C@@H]1CCCN1C(=O)[C@@H]1CCCN1C(=O)[C@H](CCCCN)NC(=O)[C@H](CC(=O)O)NC(=O)[C@@H](N)C(C)C)C(=O)N[C@@H](Cc1ccc(O)cc1)C(=O)N[C@@H](CC(N)=O)C(=O)N[C@H](CCCNC(=N)N)C(N)=O  MIC (broth microdilution; ATCC 25922; 18 h, 37 °C, 25% MHB2): 32 µg/mL
OB(O)c1ccc(OCc2ccccc2)nc1F  MIC (bacterial growth; TEM-3 ESBL clinical isolate; without cefotaxime): > 2050 µg/mL
